Assay results gathered from unrelated publications.
Parts stem from different laboratories: compare values within a part only. Positions count from the first letter of the parent shown.

Series 1 — technique: universal PBM; form: double-stranded DNA, one strand shown; sample: in vitro; tested at: 600 nM; direction: higher = stronger binding
Target: Sal-like protein 4, full length isoform A (SALL4, Homo sapiens, UniProt Q9UJQ4, residues 1-1053)
UniProt Q9UJQ4, sequence (whole entry, looked up): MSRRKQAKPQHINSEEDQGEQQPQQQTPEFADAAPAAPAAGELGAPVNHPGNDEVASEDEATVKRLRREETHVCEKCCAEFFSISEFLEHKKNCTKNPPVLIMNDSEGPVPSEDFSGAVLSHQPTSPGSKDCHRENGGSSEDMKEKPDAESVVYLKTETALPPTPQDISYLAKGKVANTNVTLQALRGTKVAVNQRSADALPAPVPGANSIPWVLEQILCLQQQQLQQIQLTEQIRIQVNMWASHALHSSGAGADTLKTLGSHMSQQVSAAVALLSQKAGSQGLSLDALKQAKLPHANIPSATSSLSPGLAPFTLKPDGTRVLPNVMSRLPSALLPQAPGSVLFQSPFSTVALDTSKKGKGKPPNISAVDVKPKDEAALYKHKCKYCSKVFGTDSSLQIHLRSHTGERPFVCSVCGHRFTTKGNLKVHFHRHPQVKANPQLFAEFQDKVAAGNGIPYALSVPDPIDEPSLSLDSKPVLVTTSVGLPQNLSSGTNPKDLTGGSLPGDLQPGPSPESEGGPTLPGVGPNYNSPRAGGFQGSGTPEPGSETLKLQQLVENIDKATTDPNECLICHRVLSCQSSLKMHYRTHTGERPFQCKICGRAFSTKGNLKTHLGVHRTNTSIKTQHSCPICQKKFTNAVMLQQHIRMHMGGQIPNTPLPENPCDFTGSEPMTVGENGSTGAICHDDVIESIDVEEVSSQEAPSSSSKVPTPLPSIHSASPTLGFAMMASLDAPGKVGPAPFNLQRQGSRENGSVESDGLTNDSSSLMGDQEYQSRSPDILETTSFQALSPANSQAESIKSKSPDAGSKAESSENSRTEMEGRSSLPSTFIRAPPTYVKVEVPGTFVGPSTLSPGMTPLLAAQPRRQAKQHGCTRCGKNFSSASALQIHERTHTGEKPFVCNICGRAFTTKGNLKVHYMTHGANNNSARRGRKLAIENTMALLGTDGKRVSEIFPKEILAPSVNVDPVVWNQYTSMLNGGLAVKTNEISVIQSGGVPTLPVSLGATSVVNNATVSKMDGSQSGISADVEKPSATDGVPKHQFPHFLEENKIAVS
Setting: 8-mer, flanks averaged, mean of replicates
The E-score of `GATATGGA` is reported as 0.312.
For `ACCCACCC`, the E-score was -0.241.
The E-score of `CGGGTTAC` is reported as -0.133.
The E-score of `CAATAGTA` is reported as 0.187.
`CGACGTCC` gave an E-score of -0.328.
The E-score of `ATCTCTGA` is reported as -0.00305.
The E-score of `ACATAGTG` is reported as 0.125.
For `GAAAGTAA`, the E-score was 0.235.
For `CCTGCGCA`, the E-score was -0.208.
For `GCTGGGCA`, the E-score was -0.191.
The E-score of `AGCCTCAA` is reported as -0.199.
`CCGGGCTA` has an E-score of -0.379.
`GTGGCTAA` gave an E-score of 0.0228.
`CCGCCCTC` has an E-score of -0.236.
`GATAGGAA` gave an E-score of 0.0702.
The E-score of `AACAGCTA` is reported as 0.0667.
`GGTGTCCA` gave an E-score of -0.211.
With `CCGCACAC` the E-score was -0.193.
`CTTCGATC` has an E-score of -0.101.
`GATGAGGA` gave an E-score of -0.00649.
With `CGAGCGTC` the E-score was -0.231.
For `GCAAGACC`, the E-score was -0.153.
The E-score of `GGTATAAC` is reported as 0.175.
For `ATATTGAG`, the E-score was 0.322.
`CTGAGGTC` has an E-score of -0.259.

Series 2 — technique: DHFR PCA, deep sequencing; sample: yeast; with: (+)-ABA 0.032 µM; baseline: wild-type fitted maximum; direction: higher = stronger binding
Target: ABI1, truncated, D143A, DHFR fusion (Arabidopsis thaliana)
Setting: methotrexate growth selection, single substitutions
Starting sequence: PYL1, truncated, DHFR fusion (Arabidopsis thaliana); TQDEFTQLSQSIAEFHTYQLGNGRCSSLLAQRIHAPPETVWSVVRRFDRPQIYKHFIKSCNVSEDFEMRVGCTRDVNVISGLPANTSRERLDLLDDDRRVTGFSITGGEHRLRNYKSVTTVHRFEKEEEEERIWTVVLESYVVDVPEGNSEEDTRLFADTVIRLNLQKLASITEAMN; partner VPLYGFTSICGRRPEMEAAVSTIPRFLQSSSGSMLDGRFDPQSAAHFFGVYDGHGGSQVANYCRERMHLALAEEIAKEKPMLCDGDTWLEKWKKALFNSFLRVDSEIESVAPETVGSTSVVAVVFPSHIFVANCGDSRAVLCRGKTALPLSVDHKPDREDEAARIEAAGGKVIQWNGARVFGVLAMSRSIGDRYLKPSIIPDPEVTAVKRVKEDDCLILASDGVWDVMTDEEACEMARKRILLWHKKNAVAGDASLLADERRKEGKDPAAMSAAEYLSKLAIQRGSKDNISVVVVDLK
`L91D` — result for “relative binding score”: -10.1%.
For `A84G`, “relative binding score” read 39.5%.
Under “relative binding score”, `T1H` is recorded as 22.1%.
`I57D`: “relative binding score” 0.408%.
`M68G`: “relative binding score” -1.5%.
`Q19T`: “relative binding score” 30.8%.
For `A170G`, “relative binding score” read -2.06%.
Under “relative binding score”, `H122D` is recorded as -4.7%.
`P83H`: “relative binding score” 12.8%.
`K116D` — result for “relative binding score”: -2.72%.
Under “relative binding score”, `D97T` is recorded as 31.9%.
`E147R`: “relative binding score” 1.4%.
`S9P` — result for “relative binding score”: -1.94%.
`L169N`: “relative binding score” -9.96%.
For `V142W`, “relative binding score” read -4.72%.
Under “relative binding score”, `D153G` is recorded as 2.11%.
`V70K`: “relative binding score” 0.958%.
`I162H` — result for “relative binding score”: 4.91%.
Under “relative binding score”, `D65F` is recorded as -3.99%.
`S80K` — result for “relative binding score”: -0.644%.
Under “relative binding score”, `Q10F` is recorded as -6.67%.
`V100K` — result for “relative binding score”: 4.73%.
For `A30Q`, “relative binding score” read 25%.
`N85L` — result for “relative binding score”: 56.6%.
`S9M`: “relative binding score” 31.3%.

Series 3 — technique: RNA Bind-n-Seq; form: RNA; sample: in vitro; tested at: 200 nM; setting: whole 134-nt RNA, ends assumed; with: 150 mM LiCl; baseline: input library; direction: higher = stronger binding; library: 7-deaza-guanosine replaces G
Target: Fragile X messenger ribonucleoprotein 1, C-terminal low-complexity region (Fmr1, Mus musculus, UniProt P35922)
Shared flanks, not repeated: GGGAGUUCUACAGUCCGACGAUC … UGGAAUUCUCGGGUGUCAAGG
The log2 enrichment of `AGUCCUGUGCUACACAUCGUAUGUACCGAAUCGGCCCCCGGGCCCCCGGGCCCCCGGAAAGUAUUAUGUUACGCCGUUCGGAUCUGCACU` is reported as -2.23.
For `CAAGUCCUGUGCUACACAUCGUAUGUACCGAAUCGGUUUGGAAAAAGGAAAAAGGAAAGUAUUAUGUUACGCCGUUCGGAUCUGCACUUC`, the log2 enrichment was -1.27.
`AGUCCUGUGCUACACAUCGUAUGUACCGAAUCAAACCCAAAUUUAAACCCCCCCAAAAAAGUAUUAUGUUACGCCGUUCGGAUCUGCACU` gave a log2 enrichment of 1.16.
For `AGUCCUGUGCUACACAUCGUAUGUACCGAAUCGGAAAAAGGAAAAAGGGAAAAAGGGAAAGUAUUAUGUUACGCCGUUCGGAUCUGCACU`, the log2 enrichment was -1.63.
`CUGUGCUACACAUCGUAUGUACCGAAUCGGGGCCCCCCCGGGCCCCCCCGGGCCCCCCCGGGAAAGUAUUAUGUUACGCCGUUCGGAUCU` gave a log2 enrichment of -0.543.
For `UCAAGUCCUGUGCUACACAUCGUAUGUACCGAAUCGGAAAAAGGUUUGGAAAGGAAAGUAUUAUGUUACGCCGUUCGGAUCUGCACUUCC`, the log2 enrichment was -1.31.
The log2 enrichment of `UCCUGUGCUACACAUCGUAUGUACCGAAUCGGGGUUUUUUGGGUUUUUUGGGUUUUUUGGAAAGUAUUAUGUUACGCCGUUCGGAUCUGC` is reported as -0.108.
`GCAGGAAGUAAAAACAAAUGGAAAUGAUUCGGAUAGUGGCAGGGGUGGGGGUUGCUAAGGAAAGGGUGGGAUGGGAGUGGGUAAAGAGUU` has a log2 enrichment of 1.43.
For `CCUGUGCUACACAUCGUAUGUACCGAAUCGGUUUUUUUGGGGUUUUUUUGGUUUUUUUGGAAAGUAUUAUGUUACGCCGUUCGGAUCUGC`, the log2 enrichment was 0.146.
For `UCAAGUCCUGUGCUACACAUCGUAUGUACCGAAUCGGUGGUUUUUUUGGUUUGGAAAGUAUUAUGUUACGCCGUUCGGAUCUGCACUUCC`, the log2 enrichment was -1.36.
For `CAAGUCCUGUGCUACACAUCGUAUGUACCGAAUCGGAAAAAAAGGUGGUUUUUGGAAAGUAUUAUGUUACGCCGUUCGGAUCUGCACUUC`, the log2 enrichment was -1.76.

Series 4 — target: CCNB1, cyclin fold, Cln2 fusion (human); technique: yeast growth competition, sequencing; sample: yeast; setting: strong parent motif; baseline: not given; direction: higher = stronger binding
Starting sequence: RBL2 docking peptide (human); STTRRRLFVENDS
`R4I` — result for “normalised enrichment score”: 1.7.
`V9T` — result for “normalised enrichment score”: 2.03.
`S1Q`: “normalised enrichment score” 1.11.
`D12L`: “normalised enrichment score” 0.198.
For `T2K`, “normalised enrichment score” read 2.29.
For `T3Y`, “normalised enrichment score” read 1.17.
Under “normalised enrichment score”, `E10Q` is recorded as 0.225.
For `T3S`, “normalised enrichment score” read 0.367.
For `S13V`, “normalised enrichment score” read 0.116.
`T3G` — result for “normalised enrichment score”: 0.418.
For `V9G`, “normalised enrichment score” read 0.736.
For `L7I`, “normalised enrichment score” read 1.16.
`R6E` — result for “normalised enrichment score”: 0.604.
For `L7R`, “normalised enrichment score” read 1.1.
For `D12F`, “normalised enrichment score” read -0.389.
Under “normalised enrichment score”, `V9I` is recorded as 0.263.
`F8V` — result for “normalised enrichment score”: -0.122.
`F8C`: “normalised enrichment score” 0.711.
`L7K` — result for “normalised enrichment score”: 0.53.
Under “normalised enrichment score”, `F8D` is recorded as 0.484.

Series 5 — technique: RNA Bind-n-Seq; form: RNA; sample: in vitro; tested at: 365 nM; baseline: no-protein control; direction: higher = stronger binding
Target: RNA binding protein fox-1 homolog 2, RRM domain, GST-SBP tag (RBFOX2, Homo sapiens, UniProt O43251-10, residues 100-194)
Setting: natural RNA segment, single round, ends assumed
Shared flanks, not repeated: GGGAGUUCUACAGUCCGACGAUC … UGGAAUUCUCGGGUGCCAA
Target sequence (chain): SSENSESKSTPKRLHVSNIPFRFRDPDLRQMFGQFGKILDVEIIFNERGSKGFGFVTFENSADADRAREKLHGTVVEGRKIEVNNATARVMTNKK
For `AGGAGAGGACAAGUGGGGACAUUUCCUCGGCAUGGCCUCCAAGGCCUGCAUGGCUACACACCUGGCUCAGUGCCUCCUCCAGAUCCCCUCCUGAGGCUGCCCCAAGGCCU`, “RBNS enrichment (R)” read 1.04.
`CUCAGGACCCUCUUCCCUCAGGGGCUGCACCCUCCUCUCACUCCCUUCCAUGCCGGAACCCAGGCCAGGGACCCACCGGCCUGUGGUUUGUGGGAAAGCAGGGUGGACGC`: “RBNS enrichment (R)” 0.334.
For `UAAAAGAAAGGCUAUCCAGUAGAGCCCAGUGCUCCCUUGUCCCUCUUUUAUGAUCAGGGUGAAAUGUACUUCCUGAUGUAAUGAACCUAAUUUGAUUUCCAUUUUAAGGU`, “RBNS enrichment (R)” read 0.312.
Under “RBNS enrichment (R)”, `AAACUCCGUCUUCAUGUUUACCAUGGAGAGUUUUACAGAAAUCGGGCUGCACUCUGGGAGUGCUUACUCACAGUUUAUUUGCUUUUUUUAAAAAGGAGAUUAUUCUAAAA` is recorded as 0.395.
`ACAAAGGUGGUAAACCUGUAGAUUGGGCCUUAAUUAGCAUUGUACUCUAAUCAAAGGACUCUUUCUAAACCAUAUUUAUAGCUUUCUUAACCUACACAUAGUCUAUACAU`: “RBNS enrichment (R)” 0.455.
For `AUUAUUUAUAUUACAGAGAAAAGAGGGAUCGGCCCUCCAAGGACCAGACAGAUUGAGAGAGAGUCACUUAAGCUGAGAGAGACUUAAGGGUGAGACUGGCGUGCAGGCGU`, “RBNS enrichment (R)” read 0.5.
For `CCAGCAUGGAAAGGUUCAGCUGGAGACAUUUCUGAAACAGACUACUUUACUUUGAAGCAAACGUCUUUUUUUUAAAGAUUGCUUCACCAAUGAUGCUGUCAGAUAUAUCU`, “RBNS enrichment (R)” read 1.18.
For `CGGACAGGUCCCGCAGCGCGUCCCCGUAGACCCGUCCCAGACACGUCUUUUCAUUCCAGUCCAGUUCAGGCUGCCGUGCACUUUGUCGGAUAUAAAAUAAACCACGGGCC`, “RBNS enrichment (R)” read 0.465.
Under “RBNS enrichment (R)”, `GGGUCUGAUAGAAAACGGGACUGCUCUGCACCAACAGCCUGUCACAGACAGGACAGCUGGACCACAGAGUUUAUUUUUGUAUUUCUUAUUGGGCCUGUACACUCCAGCUC` is recorded as 0.183.
Under “RBNS enrichment (R)”, `UUUUUUUUUUUUCUUUUUCCAUAGGAAAGAAUAUAUAAAUUUGUAAAUCCUAAUUCAAAGAUGGCUCAUGUGUGAGGGCAUUGAGUUUGAUUUGUUUUCCCUUUGGUCUG` is recorded as 0.786.
For `CUCGAUCUUCAUCCUCUUCAGCAUCACCUUCUUCUCCCAGUUCUCGAGAAGAAAAGGAGAGUAAGAAGGAAAGAGAAGAAGAAUUUAAAACUCACCAUGAAAUGAAAGAA`, “RBNS enrichment (R)” read 0.835.
Under “RBNS enrichment (R)”, `CUGCCCCUCGAGGGGGCCCUGCCUGCCGCGGGGCCUCCCCACAAGCCCCUCCCAAAGCGCCGGCCGACUCGCUGUCUCGCUGGGGACUCUUUCAGCCCUCGCGCCCGCCC` is recorded as 0.674.
